Assay results from different studies.
Every numbered part comes from another study and shows a few of its results, in no order. “And” joins repeats or separate records; there may be more than shown.

Series 1
SMILES: CCN1/C(=C/C=C2\CCCC(/C=C/C3=[N+](CC)c4ccccc4C3(C)C)=C2NCCCCCCCCN2CCC(Nc3nc4ccccc4n3Cc3ccc(F)cc3)CC2)C(C)(C)c2ccccc21
Cell line: U-87 MG
Tested at: concentration not given
Relative to: DMSO
test | log2 fold change
item: SLAMF8 mRNA | -1.69
item: TSLP mRNA | 2.06
item: PCDHB14 mRNA | -1.2
item: TRPC4 mRNA | -1.72
item: GAP43 mRNA | -2.58
item: SASS6 mRNA | -1.37
item: RPTN mRNA | -3.39
item: BUB1 mRNA | -1.85

Series 2
SMILES: COCC1CC2C(CCC3C(O)CCC32)c2ccc(O)cc21 (stereo not drawn)
cell line | test | conditions | how to read | log2 fold change
PANC-1 | microarray, item: SPC25 | 25 µM | relative to: untreated | 0.437
PANC-1 | DNA microarray, item: C6 | 100 µM | relative to: untreated cells | 6.6
PANC-1 | DNA microarray, item: MCM7 | 100 µM | relative to: untreated cells | -0.302
A549 | DNA microarray, item: C6 | 100 µM | relative to: untreated cells | 7.37
A549 | microarray, item: CDC25B | 25 µM | relative to: untreated | -0.13
PANC-1 | DNA microarray, item: KIF20A | 25 µM | relative to: untreated cells | 0.68 and 0.558 and 0.568 and 0.613 and 0.579
A549 | microarray, item: RFC3 | 100 µM | relative to: untreated | -0.0484
PANC-1 | DNA microarray, item: UBB mRNA | 100 µM | relative to: control | -0.721

Other studies, line by line
MPO: Myeloperoxidase (MPO, Homo sapiens, UniProt P05164)
Chain of UniProt P05164 (whole entry, looked up): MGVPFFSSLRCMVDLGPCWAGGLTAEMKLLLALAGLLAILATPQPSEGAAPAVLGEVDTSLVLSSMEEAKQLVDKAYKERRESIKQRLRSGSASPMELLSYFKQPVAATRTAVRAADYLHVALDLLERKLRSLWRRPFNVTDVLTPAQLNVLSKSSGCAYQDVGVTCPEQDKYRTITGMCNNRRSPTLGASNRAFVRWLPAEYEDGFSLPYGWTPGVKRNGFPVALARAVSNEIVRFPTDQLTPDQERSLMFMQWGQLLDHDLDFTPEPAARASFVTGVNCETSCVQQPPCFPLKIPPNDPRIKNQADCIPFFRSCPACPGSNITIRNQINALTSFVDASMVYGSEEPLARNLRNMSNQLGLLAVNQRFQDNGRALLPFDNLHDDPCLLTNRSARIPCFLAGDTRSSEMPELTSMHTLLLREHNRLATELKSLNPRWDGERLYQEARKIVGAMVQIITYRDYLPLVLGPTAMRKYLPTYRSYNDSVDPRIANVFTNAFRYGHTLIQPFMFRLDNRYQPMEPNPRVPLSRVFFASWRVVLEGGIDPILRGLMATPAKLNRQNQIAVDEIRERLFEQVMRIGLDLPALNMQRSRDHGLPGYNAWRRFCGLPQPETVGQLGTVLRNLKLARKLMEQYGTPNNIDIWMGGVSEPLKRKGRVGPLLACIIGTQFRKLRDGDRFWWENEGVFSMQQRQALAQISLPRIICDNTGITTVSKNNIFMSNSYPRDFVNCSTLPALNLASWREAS
SMILES | tested on | test | test system | conditions | quantity | result
C=C(CN)COc1cccc(Cn2c(=S)[nH]c(=O)c3[nH]cnc32)c1 | MPO | enzyme activity, inhibitor, fluorescence | – | – | IC50 | 15 nM
Cn1cc(-c2cccc(CN3CCC4(CC3)COc3c4ccc4c3CN([C@H]3CCC(=O)NC3=O)C4=O)c2)cn1 | – | – | Crbn I391V mouse, MC-38 tumour | oral, 30 mg/kg once daily, day 7 | body weight change | 3.7% and -3.4% and 1.8% and -1% and -4.5%
NC/C(=C\F)COc1cccc(Cn2c(=S)[nH]c(=O)c3[nH]cnc32)c1 | – | – | human whole blood | 1 h | blood to plasma ratio | 0.98
O=c1[nH]c(=S)n(C[C@H]2CCCO2)c2nc[nH]c12 | MPO | enzyme activity | – | 0.0005 µM | inhibition | 16.3% and -9.07% and -13.4% and -14% and -2.59% and -3.09%
Cc1cc2c([nH]1)c(=O)[nH]c(=S)n2Cc1cccc(OC/C(=C/F)CN)c1 | MPO | enzyme activity, inhibitor, fluorescence | – | – | IC50 | 1390 nM

Some of these lines once more (series 2):
cell line | test | conditions | how to read | log2 fold change
PANC-1 | DNA microarray, item: C6 | 100 µM | relative to: untreated cells | 6.6
PANC-1 | DNA microarray, item: MCM7 | 100 µM | relative to: untreated cells | -0.302
